Experimental data gathered from unrelated publications.
A part holds a random share of what one study measured. Substitutions count along the parent as printed.

Block 1
Target: ABI1, truncated, D143A, DHFR fusion (Arabidopsis thaliana)
Technique: DHFR PCA, deep sequencing
Medium: yeast
Setting: methotrexate growth selection, single substitutions
Added: (+)-ABA 200 µM
Baseline: wild-type fitted maximum
Reading: higher = stronger binding
Measurement: relative binding score
Parent: PYL1, truncated, DHFR fusion (Arabidopsis thaliana); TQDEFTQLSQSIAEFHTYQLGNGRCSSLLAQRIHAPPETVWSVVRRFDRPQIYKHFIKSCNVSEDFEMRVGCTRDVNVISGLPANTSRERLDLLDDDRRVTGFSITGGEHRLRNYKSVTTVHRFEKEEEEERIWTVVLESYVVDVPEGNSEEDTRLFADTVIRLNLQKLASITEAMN; partner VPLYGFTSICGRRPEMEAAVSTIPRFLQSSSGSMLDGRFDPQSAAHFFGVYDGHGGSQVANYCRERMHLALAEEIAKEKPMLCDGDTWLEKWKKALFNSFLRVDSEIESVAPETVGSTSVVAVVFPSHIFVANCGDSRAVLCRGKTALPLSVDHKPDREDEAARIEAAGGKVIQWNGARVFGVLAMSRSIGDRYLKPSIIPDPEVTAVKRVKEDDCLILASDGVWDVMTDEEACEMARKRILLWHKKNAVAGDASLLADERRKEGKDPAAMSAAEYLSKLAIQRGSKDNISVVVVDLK
L28M: 100%
L169A: 3.17%
T106K: 94.2%
P83C: 53.4%
R45M: 20.5%
T119P: -15.2%
I162P: 4.98%
R74P: -3.79%
T17M: 82.2%
D153F: 6.34%
N177D: 90.5%
L94G: -4.31%
E174Q: 89.5%
S26D: 62.4%
L164N: 86.2%
K58Q: 104%
M68D: 78.3%
N114P: 4.56%
V121W: -11%
L112P: 6.77%
E14Q: 100%
F124H: 95.3%
E67Q: 97.5%
S42E: 97%
N177V: 98.1%

Block 2
Target: CCNE1, cyclin fold, Cln2 fusion (human)
Technique: yeast growth competition, sequencing
Medium: yeast
Setting: strong parent motif
Baseline: not given
Reading: higher = stronger binding
Measurement: normalised enrichment score
Parent: BRCA2 docking peptide (human); PSIKRNLLNEFDR
L8F: 1.24
F11R: 0.0115
F11W: -0.0197
P1W: 2.44
L8S: 1.12
D12A: 1.69
L8E: 0.164
P1S: 1.68
N6A: -0.205
S2Y: 1.02
L8M: 2.28
K4L: 0.949
N9A: 3.2
P1G: 1.31
I3K: 1.12
R5P: 0.211
N9P: 1.9
R13Y: 2.35
N9V: 2.06
L8G: -0.335
F11T: 0.72
K4I: 0.902
S2I: 1.51
N9H: 1.88

Block 3
Target: JUND, bZIP domain (human)
Technique: DHFR protein complementation
Medium: yeast
Setting: single substitutions, most at no-binding floor
Baseline: wild-type JUN-FOS pair
Reading: higher = stronger binding
Measurement: binding fitness
Parent: JUN, bZIP domain (human); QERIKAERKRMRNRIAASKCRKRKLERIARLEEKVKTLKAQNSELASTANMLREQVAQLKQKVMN; partner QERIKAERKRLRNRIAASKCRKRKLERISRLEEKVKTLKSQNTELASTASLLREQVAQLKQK
A29L: -0.999 natural log
A46E: -0.434 natural log
I28Q: -1.04 natural log
E54N: -0.929 natural log
Q55L: -1.01 natural log
E54G: -0.894 natural log
N42R: -1.17 natural log
R53T: -1.16 natural log
K34Q: -0.41 natural log
M51D: -0.552 natural log
A40Y: -1.11 natural log
A29I: -0.882 natural log
Q55A: -1.1 natural log
T37A: -0.536 natural log
Q55M: -0.922 natural log
T48I: -0.694 natural log
Q41V: -0.903 natural log
A49T: -0.535 natural log
K36D: -1.03 natural log
I28M: -0.829 natural log
I28V: -0.902 natural log
E54A: -0.793 natural log
K39A: -0.843 natural log
A29T: -0.859 natural log
V35L: -0.875 natural log

Block 4
Target: RNA binding protein fox-1 homolog 2, RRM domain, GST-SBP tag (RBFOX2, Homo sapiens, UniProt O43251-10, residues 100-194)
Technique: RNA Bind-n-Seq
Form: RNA
Medium: in vitro
Concentration: 365 nM
Setting: natural RNA segment, single round, ends assumed
Baseline: no-protein control
Reading: higher = stronger binding
Measurement: RBNS enrichment (R)
All sequences stand within: GGGAGUUCUACAGUCCGACGAUC … UGGAAUUCUCGGGUGCCAA
Target sequence (chain): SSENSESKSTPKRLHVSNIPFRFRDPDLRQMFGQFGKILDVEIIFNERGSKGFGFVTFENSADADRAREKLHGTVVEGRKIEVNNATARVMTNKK
GUAUCCAUAAAGGAUGCUAGCCUGCCUUGUACUAAUGUUUUAUAUAUUAAAAAAAAAAAAUCUAUCAACCAUUUCAUAUAUAUCCCACUACUCAAGGUAUCCAUGGAACA: 0.461
GAGAACAGGGAGACAGUGUGUGGGGGUGGGACCUCAUCUGUGUGCCUGGUAUCCUGAGUUUUACAUGUAGAUGCAUUCGCCUAUUUGAUUCAGAAAAAUAAACUUUCCCA: 1.38
UGACAGCAGGUGACCUUGUCUGCCAAGAUCUUCCUUUUGAGUGUUUAAGCCCAACUACUUGUCAUAUAUGUCUGAAUGUCAAAAGCUGUCAGCAGCACAACACAAUCUAU: 0.602
GGGUCUCAGCUCCUGGAGUCGCAGGCCCUUGGGGCCCCUCUGUGAGAUCUCAAUGCUGUCUGGGGACCCUAAGAGUUUUCUCACCUGUUCAGUCUCAUCUAACCUUCCAA: 0.422
ACUGUAAAAUCAACAGGAAAUGGCCACUGGGAGAGAAGGAUUUGGUAUUGGGUGAGGGGCUUUCUCCCUUUACCUGCCUCUUCUUGCUUGCUAAUAGUAAGUUCUUUGUG: 0.322
CGCUGUUUCCUGCACUUAAGCCUUGGCAGGAGCCAAGGUCUAUGGUUUUUUGAGAUGAAGCAUUUGUUACAGAUAAUUGGGUAGAGUGGAGUGUAUCUGCUUAAGGGGUG: 0.621
AUGCUUGUCAAUAGCCUUUUUCUAUCAAGAAAACAAGGAGCUAAUUAUUAAUAACAGUCAUGGCACACUGUGUCCUAUCUUAGCAUUUAAAAGUAUGCAAACUCCAGGUC: 0.355
UAGCUAUCUGGGACAUUAUUGGCAGUGGGCCCUGGAGGCCAGUCCCUAGCCCCCCUUGCCCCUUAUUUCUUCCCUGCUUCCCUCGAACCCAGAGAUUUUUGAGGGAUGAA: 0.357
GGUAAGGCAGAGCCCUCUGCUGAGAAUGUAGUAUUGUUUUUCCCCUCUCCCUCCUGCUUUCUUUUUGGAGCUUCUUUGGGUCAAAGACAUGGAAGUUGCUUCAGAUAUCU: 0.468
UCUGUCUGGUCCGAGAUGACCCUCUGGUCCAGGCCUCGCUGACACUUUUGUUCUCAGCUUCUGCCAUCUGUGACUACUGAUAUCCUGGAUGGACACCUUGCUGGACUUGA: 0.223
AGAUUUGAGGACUGAAGCUGGGGCUUGGGGAUUGCCACUAAGUACAGCUGACGGUUUCUCCCCGGACACUCGCCUACUAAGUACCCUUGGGGUGGUGCUGGGUCAUUACU: 0.328
GAUUCUGUCAUCAUGCCCCCUCCCCACUUGUUCCUGCAGUUAUUAAAUAUUAACCAGGUUAGUGUUGAGUUAGAAAUUACAUUUCUGAGUUCAAGCGUUGUCUUUUUAAG: 0.48

Block 5
Target: Ras GTPase-activating protein-binding protein 1, full length (G3BP1, Homo sapiens, UniProt Q13283)
Sequence of UniProt Q13283 (whole entry, looked up): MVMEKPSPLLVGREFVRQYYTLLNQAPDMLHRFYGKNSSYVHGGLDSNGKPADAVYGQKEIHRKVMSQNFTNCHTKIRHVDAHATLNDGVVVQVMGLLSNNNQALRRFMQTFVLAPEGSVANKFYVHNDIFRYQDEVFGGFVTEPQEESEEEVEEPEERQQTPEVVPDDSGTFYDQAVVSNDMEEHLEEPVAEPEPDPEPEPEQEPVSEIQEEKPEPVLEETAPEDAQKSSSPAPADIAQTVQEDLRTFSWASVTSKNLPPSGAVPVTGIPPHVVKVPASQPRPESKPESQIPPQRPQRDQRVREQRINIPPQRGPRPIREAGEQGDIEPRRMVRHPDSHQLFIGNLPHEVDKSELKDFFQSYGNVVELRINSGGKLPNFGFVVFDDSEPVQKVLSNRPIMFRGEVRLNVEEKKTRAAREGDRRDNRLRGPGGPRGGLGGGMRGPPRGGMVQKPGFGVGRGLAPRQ
Technique: RNA Bind-n-Seq
Form: RNA
Medium: in vitro
Concentration: 200 nM
Setting: whole 134-nt RNA, ends assumed
Added: 150 mM LiCl
Baseline: input library
Reading: higher = stronger binding
Measurement: log2 enrichment
Library: 7-deaza-guanosine replaces G
All sequences stand within: GGGAGUUCUACAGUCCGACGAUC … UGGAAUUCUCGGGUGUCAAGG
CCAGAGCCAGAGAGCUUGGGCCCUGGGACGCCUGGGUUCCCCGAGCAGGAGGAAGACGAACUUCACCGCACCCUGGGCGUGGAGCGGUUU: -1.74
UGGGAGGUGGAUUUUGUUUAUUUUUUUAGCUCAUUUCCAGGGGUGGGAAUUUUUUUUUAAUAUGUGUCAUGAAUAACGUUGUUUUUGAAA: -0.0575
CAAGUCCUGUGCUACACAUCGUAUGUACCGAAUCGGUGGAAAAAGGAAAAAAAGGAAAGUAUUAUGUUACGCCGUUCGGAUCUGCACUUC: -0.66
AGUCCUGUGCUACACAUCGUAUGUACCGAAUCGGGGAGGGGUGGGGAAAAAAAGGGGAAAGUAUUAUGUUACGCCGUUCGGAUCUGCACU: 0.382
CUCAAGUCCUGUGCUACACAUCGUAUGUACCGAAUCGGGGUGGUGGGGUGGGGAAAGUAUUAUGUUACGCCGUUCGGAUCUGCACUUCCA: -0.677
CCUGUGCUACACAUCGUAUGUACCGAAUCGGGGAGGGGUUUUUUUGGGGUUUUUUUGGGGAAAGUAUUAUGUUACGCCGUUCGGAUCUGC: 1.58
GUCCUGUGCUACACAUCGUAUGUACCGAAUCGGGAAAAAGGGGAAAAAGGGAAAAAGGGAAAGUAUUAUGUUACGCCGUUCGGAUCUGCA: 0.134
CCUGUGCUACACAUCGUAUGUACCGAAUCGGGCCCCCCGGGGCCCCCCGGGCCCCCCGGGGAAAGUAUUAUGUUACGCCGUUCGGAUCUG: -2.19
CUGUGCUACACAUCGUAUGUACCGAAUCGGGGUUUUUUUGGGGUUUGGGGAAAAAAAGGGGAAAGUAUUAUGUUACGCCGUUCGGAUCUG: -0.0822
UCAAGUCCUGUGCUACACAUCGUAUGUACCGAAUCGGAAAGGUUUGGUUUUUGGAAAGUAUUAUGUUACGCCGUUCGGAUCUGCACUUCC: -0.288
CAAGUCCUGUGCUACACAUCGUAUGUACCGAAUCGGGGUGGGGAGGGGUUUGGGGAAAGUAUUAUGUUACGCCGUUCGGAUCUGCACUUC: -0.397

For quick reference, copied from above (block 3):
N42R: -1.17 natural log
R53T: -1.16 natural log
K34Q: -0.41 natural log
M51D: -0.552 natural log
A40Y: -1.11 natural log
A29I: -0.882 natural log
Q55A: -1.1 natural log
T37A: -0.536 natural log
Q55M: -0.922 natural log
T48I: -0.694 natural log
Q41V: -0.903 natural log
A49T: -0.535 natural log
K36D: -1.03 natural log
I28M: -0.829 natural log
I28V: -0.902 natural log
E54A: -0.793 natural log
